Measurements of several laboratories.
“And” joins repeats or separate records; there may be more than shown. ± gives the spread as reported.
CYP2A6: Cytochrome P450 2A6 (CYP2A6, Homo sapiens, UniProt P11509)
UniProt P11509, sequence (whole entry, looked up): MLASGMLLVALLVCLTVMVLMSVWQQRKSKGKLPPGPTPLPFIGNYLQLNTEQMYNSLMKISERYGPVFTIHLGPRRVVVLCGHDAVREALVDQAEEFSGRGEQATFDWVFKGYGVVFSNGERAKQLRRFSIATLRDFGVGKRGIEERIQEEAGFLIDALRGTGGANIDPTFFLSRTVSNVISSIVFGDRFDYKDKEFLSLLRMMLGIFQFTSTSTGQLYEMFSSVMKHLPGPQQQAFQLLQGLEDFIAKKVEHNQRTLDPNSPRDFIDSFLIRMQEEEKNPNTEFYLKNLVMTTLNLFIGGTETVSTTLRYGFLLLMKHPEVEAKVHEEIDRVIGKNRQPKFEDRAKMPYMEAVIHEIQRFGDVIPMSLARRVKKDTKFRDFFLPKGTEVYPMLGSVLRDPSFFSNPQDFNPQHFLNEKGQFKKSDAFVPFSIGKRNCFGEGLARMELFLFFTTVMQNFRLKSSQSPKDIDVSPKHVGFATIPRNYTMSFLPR
CYP3A4: Cytochrome P450 3A4 (CYP3A4, Homo sapiens, UniProt P08684)
UniProt P08684, sequence (whole entry, looked up): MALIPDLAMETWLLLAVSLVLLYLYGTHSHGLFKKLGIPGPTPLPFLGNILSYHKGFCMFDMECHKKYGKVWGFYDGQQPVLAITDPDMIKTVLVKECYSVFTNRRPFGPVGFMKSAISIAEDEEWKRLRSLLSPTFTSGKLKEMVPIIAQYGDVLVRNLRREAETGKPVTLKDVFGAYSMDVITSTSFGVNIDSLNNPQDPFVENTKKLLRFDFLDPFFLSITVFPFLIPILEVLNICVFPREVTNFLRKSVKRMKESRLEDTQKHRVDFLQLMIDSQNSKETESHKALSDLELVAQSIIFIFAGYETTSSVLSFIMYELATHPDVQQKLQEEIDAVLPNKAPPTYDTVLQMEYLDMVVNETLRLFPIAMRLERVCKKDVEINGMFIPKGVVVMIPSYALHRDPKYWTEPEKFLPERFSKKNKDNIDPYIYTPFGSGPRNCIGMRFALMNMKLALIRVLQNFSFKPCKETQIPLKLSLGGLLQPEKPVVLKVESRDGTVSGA
ABCG2: Broad substrate specificity ATP-binding cassette transporter ABCG2 (ABCG2, Homo sapiens, UniProt Q9UNQ0)
UniProt Q9UNQ0, sequence (whole entry, looked up): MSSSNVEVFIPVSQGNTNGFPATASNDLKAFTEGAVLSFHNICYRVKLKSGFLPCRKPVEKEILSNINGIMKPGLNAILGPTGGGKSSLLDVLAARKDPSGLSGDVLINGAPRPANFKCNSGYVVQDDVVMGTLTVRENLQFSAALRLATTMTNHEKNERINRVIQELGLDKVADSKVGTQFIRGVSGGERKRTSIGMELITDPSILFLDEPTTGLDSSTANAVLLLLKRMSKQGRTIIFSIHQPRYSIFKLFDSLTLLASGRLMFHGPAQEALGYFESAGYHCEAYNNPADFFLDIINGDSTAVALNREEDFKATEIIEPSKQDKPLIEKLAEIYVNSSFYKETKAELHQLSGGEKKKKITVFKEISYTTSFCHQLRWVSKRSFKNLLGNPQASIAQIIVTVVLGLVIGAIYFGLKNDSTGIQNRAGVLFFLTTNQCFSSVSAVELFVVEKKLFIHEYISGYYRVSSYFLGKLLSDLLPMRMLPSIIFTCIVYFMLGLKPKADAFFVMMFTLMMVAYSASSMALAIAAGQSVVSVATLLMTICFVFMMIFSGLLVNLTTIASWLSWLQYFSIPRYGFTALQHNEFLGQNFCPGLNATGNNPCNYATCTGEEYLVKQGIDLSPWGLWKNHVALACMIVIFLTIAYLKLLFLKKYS
UniProt Q12809, sequence (whole entry, looked up): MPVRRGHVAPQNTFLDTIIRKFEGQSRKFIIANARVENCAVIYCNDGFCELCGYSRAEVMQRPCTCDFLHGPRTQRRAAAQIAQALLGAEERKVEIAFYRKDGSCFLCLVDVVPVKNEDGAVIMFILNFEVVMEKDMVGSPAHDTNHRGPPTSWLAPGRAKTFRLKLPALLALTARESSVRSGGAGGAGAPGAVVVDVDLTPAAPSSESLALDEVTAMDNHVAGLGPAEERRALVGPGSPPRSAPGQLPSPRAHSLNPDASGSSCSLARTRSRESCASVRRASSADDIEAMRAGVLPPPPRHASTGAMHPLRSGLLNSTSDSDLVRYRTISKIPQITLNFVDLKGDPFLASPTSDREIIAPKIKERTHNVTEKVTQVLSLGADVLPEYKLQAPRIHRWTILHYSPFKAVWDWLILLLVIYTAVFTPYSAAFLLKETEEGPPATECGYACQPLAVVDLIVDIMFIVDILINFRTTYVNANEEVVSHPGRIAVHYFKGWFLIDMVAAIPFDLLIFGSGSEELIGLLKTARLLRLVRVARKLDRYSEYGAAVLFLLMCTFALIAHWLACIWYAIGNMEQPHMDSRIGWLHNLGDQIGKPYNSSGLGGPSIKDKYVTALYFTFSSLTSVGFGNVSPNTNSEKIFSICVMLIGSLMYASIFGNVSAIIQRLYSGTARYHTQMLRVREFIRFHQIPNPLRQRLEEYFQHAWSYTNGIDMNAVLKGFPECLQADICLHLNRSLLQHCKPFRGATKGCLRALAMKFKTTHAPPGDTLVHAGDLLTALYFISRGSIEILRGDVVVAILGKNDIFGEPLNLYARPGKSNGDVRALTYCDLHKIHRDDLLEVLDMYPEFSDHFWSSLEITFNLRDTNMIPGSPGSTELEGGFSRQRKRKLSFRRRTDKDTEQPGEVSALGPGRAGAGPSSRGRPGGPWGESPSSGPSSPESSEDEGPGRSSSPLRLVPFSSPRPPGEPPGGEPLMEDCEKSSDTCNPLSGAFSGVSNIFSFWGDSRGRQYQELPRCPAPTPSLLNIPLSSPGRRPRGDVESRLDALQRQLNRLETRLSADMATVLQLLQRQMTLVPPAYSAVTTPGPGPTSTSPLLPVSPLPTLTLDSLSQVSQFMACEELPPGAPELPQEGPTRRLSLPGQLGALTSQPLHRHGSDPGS
UniProt O15438, sequence (whole entry, looked up): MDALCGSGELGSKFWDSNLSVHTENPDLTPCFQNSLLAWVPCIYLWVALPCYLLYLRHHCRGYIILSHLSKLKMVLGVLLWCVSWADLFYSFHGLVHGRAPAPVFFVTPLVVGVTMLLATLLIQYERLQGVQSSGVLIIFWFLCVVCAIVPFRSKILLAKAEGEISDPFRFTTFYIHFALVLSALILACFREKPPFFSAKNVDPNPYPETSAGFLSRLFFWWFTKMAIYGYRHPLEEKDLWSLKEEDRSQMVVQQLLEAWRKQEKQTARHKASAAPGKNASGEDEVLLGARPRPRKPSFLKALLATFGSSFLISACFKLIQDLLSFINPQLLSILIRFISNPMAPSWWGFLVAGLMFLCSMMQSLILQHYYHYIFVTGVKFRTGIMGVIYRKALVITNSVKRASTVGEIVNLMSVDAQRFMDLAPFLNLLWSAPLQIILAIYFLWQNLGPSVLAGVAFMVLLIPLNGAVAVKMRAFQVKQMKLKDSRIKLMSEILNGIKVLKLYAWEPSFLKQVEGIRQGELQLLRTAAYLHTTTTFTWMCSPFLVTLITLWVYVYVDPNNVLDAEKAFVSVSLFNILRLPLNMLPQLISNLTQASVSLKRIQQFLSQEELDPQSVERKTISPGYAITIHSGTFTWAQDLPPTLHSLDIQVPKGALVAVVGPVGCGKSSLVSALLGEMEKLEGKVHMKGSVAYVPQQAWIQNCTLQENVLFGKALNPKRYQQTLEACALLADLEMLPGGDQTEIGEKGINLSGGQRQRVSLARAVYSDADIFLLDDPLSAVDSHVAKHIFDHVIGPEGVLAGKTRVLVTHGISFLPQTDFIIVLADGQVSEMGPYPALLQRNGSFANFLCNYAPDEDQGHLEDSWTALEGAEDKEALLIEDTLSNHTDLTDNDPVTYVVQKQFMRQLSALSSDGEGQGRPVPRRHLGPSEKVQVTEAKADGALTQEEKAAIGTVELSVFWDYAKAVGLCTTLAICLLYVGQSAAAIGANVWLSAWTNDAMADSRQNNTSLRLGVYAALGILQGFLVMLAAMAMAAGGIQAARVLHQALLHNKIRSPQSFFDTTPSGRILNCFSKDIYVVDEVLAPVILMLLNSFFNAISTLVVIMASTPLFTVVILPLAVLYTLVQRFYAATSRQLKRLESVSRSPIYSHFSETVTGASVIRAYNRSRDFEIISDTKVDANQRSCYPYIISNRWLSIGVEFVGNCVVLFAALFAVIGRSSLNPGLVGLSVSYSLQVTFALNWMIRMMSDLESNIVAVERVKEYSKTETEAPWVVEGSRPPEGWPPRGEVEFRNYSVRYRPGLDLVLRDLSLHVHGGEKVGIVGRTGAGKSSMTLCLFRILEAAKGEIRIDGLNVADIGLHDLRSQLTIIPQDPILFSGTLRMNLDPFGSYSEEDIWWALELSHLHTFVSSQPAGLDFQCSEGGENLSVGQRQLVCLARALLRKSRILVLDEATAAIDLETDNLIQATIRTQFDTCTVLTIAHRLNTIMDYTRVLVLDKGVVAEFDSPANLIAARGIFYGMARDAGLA
UniProt Q53GS9, sequence (whole entry, looked up): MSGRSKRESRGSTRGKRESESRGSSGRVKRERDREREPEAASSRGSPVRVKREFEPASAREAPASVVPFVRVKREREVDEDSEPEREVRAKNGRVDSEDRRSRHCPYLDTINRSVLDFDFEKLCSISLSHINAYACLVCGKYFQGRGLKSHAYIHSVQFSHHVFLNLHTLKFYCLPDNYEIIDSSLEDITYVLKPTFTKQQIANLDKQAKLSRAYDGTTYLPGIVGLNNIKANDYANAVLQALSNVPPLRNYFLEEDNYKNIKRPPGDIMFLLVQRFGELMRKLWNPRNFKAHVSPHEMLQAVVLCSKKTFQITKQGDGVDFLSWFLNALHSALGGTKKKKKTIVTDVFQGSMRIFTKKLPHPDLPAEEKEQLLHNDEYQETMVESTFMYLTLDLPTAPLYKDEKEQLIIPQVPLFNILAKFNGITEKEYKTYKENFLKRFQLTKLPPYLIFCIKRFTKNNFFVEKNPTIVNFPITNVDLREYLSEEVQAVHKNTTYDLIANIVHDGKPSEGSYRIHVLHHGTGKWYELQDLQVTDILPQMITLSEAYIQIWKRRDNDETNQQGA

For O=C(O)Cn1cc2ccccc2n1, the Kd was 665 µM (Ubiquitin carboxyl-terminal hydrolase 39, ZnF-UBD domain (Homo sapiens, UniProt Q53GS9)).
c1c[nH]cn1 gave a Kd of 42.8 µM (CYP2A6; binding).
CC[C@H]1[C@@H](O)[C@@H]2[C@H](CC[C@]3(C)[C@@H]([C@H](C)CCNC(=O)NS(=O)(=O)c4ccc(C(C)(C)C)cc4)CC[C@@H]23)[C@@]2(C)CC[C@@H](O)C[C@@H]12 — result for “AUC(0-t) geometric mean”: 386 ng·h/mL (CYP3A4; human, plasma; 10 mg, day 1, compound alone).
Cc1cc(C)c(CNC(=O)c2cc(Cl)c3c(c2C)O[C@@](C)([C@H]2CC[C@H](N(C)C)CC2)O3)c(=O)[nH]1 — result for “total binding capacity Rmax”: 8280 nmol/L (alpha-1-acid glycoprotein, human; population PK model; human, plasma; oral).
CN(C(=O)n1cnc(-c2ccc[n+]([O-])c2)c1)C1CCCCC1 — result for inhibition: “no effect” (CYP2A6; enzyme activity, inhibitor; pooled human liver microsomes; 0.1 to 30 µg/mL).
The inhibition of COc1ccc2c3c([nH]c2c1)[C@H](CC(C)C)N1C(=O)[C@H](CC(=O)NC(C)C)NC(=O)[C@@H]1C3 is reported as 93.2% and 62% and 73.6% and 76.7% (ABCG2; inhibitor, measured: protoporphyrin IX; A549; 0.5 µM, 2 h, added: 1 mM ALA).
The EC50 of C[C@@H](c1ccc2nccn2c1)n1nnc2ncc(-c3cnn(C)c3)nc21 is reported as 6.1 ± 0.8 µM (CYP3A4 (human); mRNA induction, inducer, measured: CYP3A4 mRNA; primary human hepatocytes; 48 h).
With C[C@H]1CN(C2COC2)CCN1c1ccc(Nc2cc(-c3ccnc(N4CCn5c(cc6c5CC(C)(C)C6)C4=O)c3CO)cn(C)c2=O)nc1 the remaining compound was 57.4 ± 7.5% (human CYP1A2; human liver microsomes; 1 µM, 60 min, pH 7.4, added: furafylline 10 µM, NADPH; relative to: 0 min).
CCc1nc2c(C)cc(N3CCN(CC(=O)N4CC(O)C4)CC3)cn2c1N(C)c1nc(-c2ccc(F)cc2)c(C#N)s1 gave an EC50 of 3 µM (CYP3A4 human; enzyme induction, inducer, in vitro).
The Tmax (median) of Cc1cc(Nc2ncnc3ccc(NC4=NC(C)(CO)CO4)cc23)ccc1Oc1ccn2ncnc2c1 (centres unmarked) is reported as 2 h (CYP3A4; human, plasma; tucatinib, day 6, added: itraconazole).
The Papp A-B of CCOc1cc2ncc(C#N)c(Nc3ccc(OCc4ccccn4)c(Cl)c3)c2cc1NC(=O)/C=C/CN(C)C is reported as 3.31 ± 0.44 ×10⁻⁶ cm/s (ABCG2; bidirectional transwell permeability; MDCKII cells transfected with ABCG2; 1 µM, 1 h, pH 7.4, added: Ko143 1 µM).
For CCCCCC(=O)NCC(=O)O, “z-scored log2 fold change” read -1.4 (binding, equilibrium dialysis LC-MS; 5 µM, thermostabilized A2AR-BRIL construct; relative to: no-protein control, direction not given).
C[C@]12CCCN1CC1=NNC(=O)c3cc(F)cc4[nH]c2c1c34 gave an uptake rate of 0.246 pmol/min/mg (ABCG2; substrate; membrane vesicles; 0.5 µM, added: ATP).
The Cmax ratio of [H]/N=C(/N)c1ccc(NCc2nc3cc(C(=O)N(CCC(=O)O)c4ccccn4)ccc3n2C)cc1 is reported as 192% (P-glycoprotein; substrate; healthy human, plasma; oral, adjusted geometric mean, added: vepdegestrant 200 mg; relative to: with vepdegestrant over alone).
CC(C)c1nc(N(C)S(C)(=O)=O)nc(-c2ccc(F)cc2)c1/C=C/[C@@H](O)C[C@@H](O)CC(=O)O: “Papp (B to A)” 8.1 ± 1.1 ×10⁻⁶ cm/s (ABCG2; substrate; human EpiIntestinal microtissues; 5 µM, 2 h, added: Ko143 5 µM).
With COc1cc(O)c(CC=C(C)C)c2c1C(=O)CC(c1ccc(O)cc1)O2 (centres unmarked) the inhibition was < 10% (CYP3A4 (human); enzyme activity, inhibitor; human liver microsomes; 10 µM, pH 7.4, added: midazolam).
The Kd of NC(=O)[C@H]1CCCN1C(=O)CCC(=O)O is reported as 399 µM (Ubiquitin carboxyl-terminal hydrolase 49, ZnF-UBD domain (USP49, Homo sapiens, UniProt Q70CQ1)).
With NC/C(=C\F)COc1cccc(Cn2c(=S)[nH]c(=O)c3[nH]cnc32)c1 the inhibition was < 50% (ABCC3 (Homo sapiens, UniProt O15438); transport, inhibitor; HEK cells expressing ABCC3; 30 µM, added: CDCF substrate).
Cc1cc(/C=C/C#N)cc(C)c1Nc1ccnc(Nc2ccc(C#N)cc2)n1 gave an inhibition of 93.7% (KCNH2 (Homo sapiens, UniProt Q12809); hERG current, manual patch clamp; CHO stably expressing hERG; 10 µM).
For NCC(=O)O, “z-scored log2 fold change” read 0.0292 (binding, equilibrium dialysis LC-MS; 5 µM, thermostabilized A2AR-BRIL construct; relative to: no-protein control, direction not given).

Some of these lines once more:
The Cmax ratio of [H]/N=C(/N)c1ccc(NCc2nc3cc(C(=O)N(CCC(=O)O)c4ccccn4)ccc3n2C)cc1 is reported as 192% (P-glycoprotein; substrate; healthy human, plasma; oral, adjusted geometric mean, added: vepdegestrant 200 mg; relative to: with vepdegestrant over alone).
